Results gathered from unrelated publications.
Compare with care: the assays were run in different laboratories. “And” joins repeats or separate records; there may be more than shown. Numbers after ± are the reported error.

Cc1cc(Oc2nc(N3CC[C@@H](c4ccncc4)C3)ncc2F)[nH]n1
normalised growth (Mycobacterium tuberculosis; OD; H37Rv PurF CRISPRi knockdown; 0.01563 µM, with: anhydrotetracycline low): 7% and 4% and 9%

CC(C)C[C@@H]1NC(=O)[C@@H](Cc2c[nH]c3ccccc23)NC(=O)[C@H](CCCNC(=N)N)NC(=O)[C@@H](CCC(=O)O)NC(=O)[C@H](CCC(N)=O)NC(=O)[C@@H](CCC(=O)O)NC(=O)[C@H](CCCNC(=N)N)NC(=O)[C@@H](Cc2c[nH]c3ccccc23)NC1=O
cytokine level (measured: IL10; LDLr-/- mouse on Western diet, liver; dose not given, 4 weeks): 160 ± 58 pg/g tissue

CC(C)(C)C(=O)OCOP(=O)(OCOC(=O)C(C)(C)C)C1CCCN(O)C1=O (centres unmarked)
CC50 (SF-539): > 100 µM

Cc1cc(C(=O)Nc2nc3cccc(C)c3n2[C@H]2CCCCN(C(=O)/C=C/CN(C)C)C2)ccn1
cell growth (Trypanosoma brucei brucei; CLK1 C215S mutant expressing; 5 x EC50, 48 h): 10400% and 13300% and 10300%

COc1ccccc1-c1n[nH]c2nc(NC3CCN(C(=O)Cc4ccc(F)cc4F)CC3)ncc12
relative abundance (bead binding, competition bead pull-down, measured: LINJ.25.1790; Leishmania donovani extract; 10 µM; reference: vehicle): 0.89

CCOC(=O)C1(Cc2ccccc2)Oc2cc(OC)ccc2N(Cc2ccccc2)C1=O (centres unmarked)
inhibition (Arabidopsis thaliana; stem length, petri dish germination; Col-0, 1/2 MS medium; 50 µg/mL, 7 days, 22 °C, dark): 36.4%

COc1ccccc1-c1n[nH]c2nc(N[C@H]3CC[C@H](NS(=O)(=O)CC(C)C)CC3)ncc12
relative abundance (bead binding, competition bead pull-down, measured: LINJ.05.0500; Leishmania donovani extract; 10 µM; reference: vehicle): 1.08

Cc1ccc(NS(=O)(=O)c2c(C(=O)N3CCCCCC3)c(C)n(C)c2C)c(Cl)c1
infection (Fowlpox virus; viral infection; CEF; 0.015 µM; reference: untreated): 95.4% and 106% and 81.1%
